Published values of several laboratories.
Parts stem from different laboratories: compare values within a part only. Positions count from the first letter of the parent shown.

Set 1
Target: Histone acetyltransferase KAT6A, both winged helices, GST fusion (KAT6A, Homo sapiens, UniProt Q92794, residues 1-181)
Technique: protein binding microarray
Molecule type: double-stranded DNA, one strand shown
Medium: in vitro
Concentration: not given
Notes: 8-mer, flanks averaged, mean of 2 arrays, mostly near background
Relative to: not given
Direction: higher = stronger binding
Residues (chain): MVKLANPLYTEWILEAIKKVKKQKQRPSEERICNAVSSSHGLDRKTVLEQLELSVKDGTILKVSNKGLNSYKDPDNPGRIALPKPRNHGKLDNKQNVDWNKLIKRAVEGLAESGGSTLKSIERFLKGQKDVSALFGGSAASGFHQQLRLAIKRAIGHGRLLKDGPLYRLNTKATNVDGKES
| Oligonucleotide | E-score |
| --- | --- |
| TAACTGCA | -0.159 |
| CCCCGGTC | 0.0345 |
| AAGACTGT | -0.0766 |
| AGAAATGC | 0.00579 |
| AATACTCA | -0.0902 |
| ACTCCTAG | -0.136 |
| AAGTCGTC | -0.0616 |
| ATGGACTC | -0.00356 |
| TAAATGGA | -0.0817 |
| CCAGTACG | -0.0442 |
| CCAGTAGA | -0.285 |
| ATGGGTGC | -0.055 |
| CCTGATGA | -0.0686 |
| AGCTCCGA | 0.0198 |
| GCAAGCCA | -0.179 |
| GCTAGAGA | -0.0761 |
| CGGAGACA | 0.0941 |
| ATTTGGTG | -0.248 |
| AGGGGAAT | -1.5e-05 |
| ACTGCTGA | -0.0773 |
| CAATTGGG | -0.136 |
| CCTGTTGA | -0.144 |

Set 2
Target: RNA binding protein fox-1 homolog 2, RRM domain, GST-SBP tag (RBFOX2, Homo sapiens, UniProt O43251-10, residues 100-194)
Technique: RNA Bind-n-Seq
Molecule type: RNA
Medium: in vitro
Concentration: 365 nM
Notes: natural RNA segment, single round, ends assumed
Relative to: no-protein control
Direction: higher = stronger binding
All sequences stand within: GGGAGUUCUACAGUCCGACGAUC … UGGAAUUCUCGGGUGCCAA
Construct (chain): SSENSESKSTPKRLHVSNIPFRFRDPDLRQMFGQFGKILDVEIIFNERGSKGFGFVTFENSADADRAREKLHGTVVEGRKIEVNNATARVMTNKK
| Oligonucleotide | RBNS enrichment (R) |
| --- | --- |
| GGAACACGCGGGUAGAUGAUUUCUAGCAGGCAGGAAGUCCUGUGCGGUGUCACCAUGAGCACCUCCAGCUGUACUAGUGCCAUUGGAAUAAUAAAUUUGAUAAGGUGGUG | 0.486 |
| UUUGUUUGCAUAUUUAAUUUUGUCAAAGCUGAGAAAUGCUCAUGAGUUGAAUUUAUAAAUGUCAUUUGCAACCAAAUGAAGUAUUUAUUUUUAAAAAGAGAGUGAAGGAA | 2.25 |
| CCAUUGAUUUUGUUUGAUUUCUGAUGUGGAAGUGCGGUCAUUCCUGGUUUAACUCACAGCAACUUUUAAUUGGUCUAAGAUGAGGGCAUCCCUCAGUUGGUCCAUUGUAA | 0.647 |
| CGUGGCCUGCAGGUGCACCCUCCUCCUCGCCACAGUCAGUCAGUUCCCGUGACAGGAAACGACCUUGUGUUCUGAGGAGAGCGUGAAGGCUGUGCCUGCCCUGCCAGUGC | 0.297 |
| AGUUCUGGAACAUCUGAAUACAACAGACCCCAACAGUACUUGCCGCUGUGUCCAGAUGUUGGAAUGGUUUGAGCAUCAUGGUCACAUUUGCAUUGUUUUUGAACUAUUGG | 3.39 |
| AGAAAGAAAAACAUUCAACUUUAGCUGAAGCUCCUUUGAUACAAAAGUUUCAUUCUGUCAGAAAUAAGCCAUAGUACAGACUCAGAGAUAGAGGCAGUUUCUAGAGAACU | 0.574 |
| UACUCGAAGGGCUGCAUUUCUCUGAGUUUACGAAAUUGUGUCAUUAUGGUCCCCAUACAGUGGUAUUUAACUUUUAAAGCAACUUUUAAGAAAACUCGACUUGUUUUUUG | 0.56 |
| UAGUCCAGCAUCACGGAGAAAGGCCAAUCCUCUUAGGAGCAUUGGACAGCUCAACCAUGUUGUCAUCUUACCACCAGAGGGCACAGCAGCCCUCUAAGGGUUUUCUCCUC | 0.218 |
| UUCUCUGUGUCCUCACUGUGGGGCUGAGGUCUCAGGGGCUCCCCUCUGCUAAGGUUCCUUCCCUUUGUCUCUGGAAACCCAACCCCACAAGGACAGAGUGGUGAGAACUC | 0.436 |
| CUUGUAUACAGAGUGUUCACUGCUAUUUCAGAUCUUGGUGAGUGUUCCAGUAACCAAGCCAGUCCCCAGGACACUAGUCUACGUUGGCAGGACUUCACAAGUUAAUCAUU | 0.47 |
| UUUAGGAGGAUGGUGUAUGGUGGGGGCAAUAAAUGAGGUUUUUUGCAUUCCAAGGAAAUGGCAUAUGGAUUAACUGUAAGAAAUGAAAUAAGUAAUUUAUUGUAAGACAA | 1.12 |
| UCUUUCUGUUGCUGGUUAUUGAGUGUUGAAAUUAUUGACCAAAAACCUUUCUUUAGUGAAUGUCAAAUCAGAAACAAAUUGUAGACCUAGGAACUGUAUUAAAGUUUAGU | 0.675 |

Set 3
Target: ABI1, truncated, D143A, DHFR fusion (Arabidopsis thaliana)
Technique: DHFR PCA, deep sequencing
Medium: yeast
Notes: methotrexate growth selection, single substitutions
Together with: (+)-ABA 1.4 µM
Relative to: wild-type fitted maximum
Direction: higher = stronger binding
Parent: PYL1, truncated, DHFR fusion (Arabidopsis thaliana); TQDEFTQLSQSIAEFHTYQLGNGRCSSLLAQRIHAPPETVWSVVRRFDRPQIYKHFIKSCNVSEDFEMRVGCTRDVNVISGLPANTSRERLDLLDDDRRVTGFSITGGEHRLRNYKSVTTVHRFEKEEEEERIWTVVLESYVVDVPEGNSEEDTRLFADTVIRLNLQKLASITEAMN; partner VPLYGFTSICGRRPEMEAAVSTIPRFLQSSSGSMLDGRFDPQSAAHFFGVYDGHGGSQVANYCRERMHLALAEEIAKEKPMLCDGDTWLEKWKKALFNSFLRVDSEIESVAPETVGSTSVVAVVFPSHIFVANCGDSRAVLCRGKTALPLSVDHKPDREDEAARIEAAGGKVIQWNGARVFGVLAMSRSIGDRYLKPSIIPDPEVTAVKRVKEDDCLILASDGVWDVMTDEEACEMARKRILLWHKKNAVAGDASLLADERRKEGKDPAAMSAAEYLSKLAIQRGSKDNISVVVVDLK
| Change | relative binding score [%] |
| --- | --- |
| R132Y | 44 |
| M68T | 23.1 |
| M176C | 29.3 |
| I79T | 41.5 |
| C25K | -24 |
| S80M | 18.8 |
| Q10T | 73.3 |
| F47R | 4.62 |
| V118P | -9.23 |
| H110L | 8.65 |
| S59V | 5.83 |
| G71S | -0.336 |
| S42R | 42.5 |
| D3G | 23.1 |
| Q31T | 0.789 |
| Y141A | -9.24 |

Set 4
Target: Sal-like protein 4, full length isoform A (SALL4, Homo sapiens, UniProt Q9UJQ4, residues 1-1053)
UniProt Q9UJQ4, sequence (whole entry, looked up): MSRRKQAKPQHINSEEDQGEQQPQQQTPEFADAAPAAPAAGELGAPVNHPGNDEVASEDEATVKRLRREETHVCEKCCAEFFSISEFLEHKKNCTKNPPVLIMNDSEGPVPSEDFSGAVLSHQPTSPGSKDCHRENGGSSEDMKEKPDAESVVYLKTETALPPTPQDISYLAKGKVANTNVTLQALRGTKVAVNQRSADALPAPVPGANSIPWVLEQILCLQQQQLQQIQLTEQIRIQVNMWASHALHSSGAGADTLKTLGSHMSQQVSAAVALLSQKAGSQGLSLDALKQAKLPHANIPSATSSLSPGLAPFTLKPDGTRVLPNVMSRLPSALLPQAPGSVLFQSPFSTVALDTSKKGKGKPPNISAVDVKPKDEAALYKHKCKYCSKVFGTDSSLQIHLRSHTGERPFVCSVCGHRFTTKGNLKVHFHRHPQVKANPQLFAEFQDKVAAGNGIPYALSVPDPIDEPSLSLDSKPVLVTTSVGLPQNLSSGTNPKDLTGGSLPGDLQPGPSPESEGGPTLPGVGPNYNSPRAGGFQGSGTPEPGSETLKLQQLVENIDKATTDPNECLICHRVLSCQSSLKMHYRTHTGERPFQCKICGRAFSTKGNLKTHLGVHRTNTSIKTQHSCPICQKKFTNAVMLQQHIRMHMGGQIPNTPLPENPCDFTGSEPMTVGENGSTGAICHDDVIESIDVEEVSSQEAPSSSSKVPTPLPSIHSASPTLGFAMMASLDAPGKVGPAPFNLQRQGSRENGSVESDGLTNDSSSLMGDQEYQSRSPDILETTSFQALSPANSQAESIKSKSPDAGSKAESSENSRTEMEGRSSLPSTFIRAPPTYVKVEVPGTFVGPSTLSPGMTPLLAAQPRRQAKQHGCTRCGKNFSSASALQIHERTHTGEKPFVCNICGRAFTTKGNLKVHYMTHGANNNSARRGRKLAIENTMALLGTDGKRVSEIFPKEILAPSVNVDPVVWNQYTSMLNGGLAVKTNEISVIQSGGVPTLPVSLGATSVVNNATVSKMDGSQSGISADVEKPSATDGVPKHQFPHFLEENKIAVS
Technique: universal PBM
Molecule type: double-stranded DNA, one strand shown
Medium: in vitro
Concentration: 600 nM
Notes: 8-mer, flanks averaged, mean of replicates
Direction: higher = stronger binding
| Oligonucleotide | E-score |
| --- | --- |
| ACGATCTA | 0.0416 |
| ACACTGGA | 0.0254 |
| CCTGCCTC | -0.342 |
| GCGTATCA | 0.113 |
| GTGCTGGA | -0.132 |
| CCGTGAGA | -0.259 |
| AAGGGCGA | -0.204 |
| AACGGTAT | 0.0984 |
| AGGGCATG | -0.101 |
| AAGAGCCT | -0.106 |
| CAGTACGC | -0.0408 |
| ACAAGGGA | 0.0319 |
| CACAAACG | 0.0476 |
| AGCACAAA | 0.0619 |
| CGCTACTC | -0.0692 |
| CGCGTTAC | -0.0532 |
| GCCTATCA | -0.0669 |
| CACAGCGG | -0.2 |
| AATGTAGA | 0.188 |
| TCAGCCAA | -0.0384 |
| GGGGGCAC | -0.273 |
| AATCAGAT | 0.148 |

Set 5
Target: Fragile X messenger ribonucleoprotein 1, C-terminal low-complexity region (Fmr1, Mus musculus, UniProt P35922)
Technique: RNA Bind-n-Seq
Molecule type: RNA
Medium: in vitro
Concentration: 200 nM
Notes: whole 134-nt RNA, ends assumed
Together with: 150 mM LiCl
Relative to: input library
Direction: higher = stronger binding
Library: 7-deaza-guanosine replaces G
All sequences stand within: GGGAGUUCUACAGUCCGACGAUC … UGGAAUUCUCGGGUGUCAAGG
| Oligonucleotide | log2 enrichment |
| --- | --- |
| UAACUUUAGAGGAGGAUCUGAUGGAUAUGGCAGUGGACGUGGAUUUGGGGAUGGCUAUAAUGGGUAUGGAGGAGGACCUGGGGGUGGCAA | 0.25 |
| AGUCCUGUGCUACACAUCGUAUGUACCGAAUCGGGUUUUUGGGUGGGUUUUUUUGGGAAAGUAUUAUGUUACGCCGUUCGGAUCUGCACU | -1.72 |
| UUCCUCAAGUCCUGUGCUACACAUCGUAUGUACCGAAUCGGAGGAGGAGGAAAGUAUUAUGUUACGCCGUUCGGAUCUGCACUUCCAGCA | -2.79 |
| ACGAUGCAGGUGGGCAUCUUUGGGAAGUGGGGCAAGGGGGGGAUAGGGAGGGGGGUAACACUUUGGGAACAGGUGGUCCCAGGUCGUUUC | 1.42 |
| CACAGACAACACGCACCCACACAGACACAGAGGGAAGGGGUUGGGAUGGGGACAAAAUGCACAGCAGGGCGGGGUAGGACCCCAGCCCCU | -0.121 |
| UGGCCCUGGUGGCAUGCGGGGAGGAAGAGGUGGCCUCAUGGAUCGUGGUGGUGCCGGUGGAAUGUUCAGAGGUGGCCGUGGUGGAGACAG | -0.154 |
| AAGUCCUGUGCUACACAUCGUAUGUACCGAAUCGGGAGGGAAAAAGGGUUUUUGGGAAAGUAUUAUGUUACGCCGUUCGGAUCUGCACUU | -1.71 |
| ACCAUGCAGGUGGGCAUCUUUGGGAAGCGGGGCAAGGGGGGGAUAGGGAGGGGGGUAACACUUUGGGAACAGGUGGUCCCAGGUCGUUUC | 1.33 |
| UAACUUUAGAGGAGGAUCUGAUGGAUAUGGCAGUGGACGUGGAUUUGGGGAUGGCUAAAAUGGGUAUGGAGGAGGACCUGGAGGUGGCAA | 0.667 |
| UCAAGUCCUGUGCUACACAUCGUAUGUACCGAAUCGGAAAGGGAAAGGAAAGGGGAAAGUAUUAUGUUACGCCGUUCGGAUCUGCACUUC | -0.885 |
| UUGCUAACUUCAAGAUAGAGCCUCCUGGACUUUUCCGUGGCCGCGGCAACCACCCCAAGAUGGGCAUGCUGAAGAGACGAAUCAUGCCCG | 0.0654 |

A few entries again (set 1):
| Oligonucleotide | E-score |
| --- | --- |
| ATGGGTGC | -0.055 |
| CCTGATGA | -0.0686 |
| AGCTCCGA | 0.0198 |
| GCAAGCCA | -0.179 |
| GCTAGAGA | -0.0761 |
| CGGAGACA | 0.0941 |
| ATTTGGTG | -0.248 |
| AGGGGAAT | -1.5e-05 |
| ACTGCTGA | -0.0773 |
| CAATTGGG | -0.136 |
| CCTGTTGA | -0.144 |
